# Results gathered from unrelated publications.
# Numbered parts are unrelated; each lists some results of a single study.
# UniProt Q9P0L2, sequence (whole entry, looked up): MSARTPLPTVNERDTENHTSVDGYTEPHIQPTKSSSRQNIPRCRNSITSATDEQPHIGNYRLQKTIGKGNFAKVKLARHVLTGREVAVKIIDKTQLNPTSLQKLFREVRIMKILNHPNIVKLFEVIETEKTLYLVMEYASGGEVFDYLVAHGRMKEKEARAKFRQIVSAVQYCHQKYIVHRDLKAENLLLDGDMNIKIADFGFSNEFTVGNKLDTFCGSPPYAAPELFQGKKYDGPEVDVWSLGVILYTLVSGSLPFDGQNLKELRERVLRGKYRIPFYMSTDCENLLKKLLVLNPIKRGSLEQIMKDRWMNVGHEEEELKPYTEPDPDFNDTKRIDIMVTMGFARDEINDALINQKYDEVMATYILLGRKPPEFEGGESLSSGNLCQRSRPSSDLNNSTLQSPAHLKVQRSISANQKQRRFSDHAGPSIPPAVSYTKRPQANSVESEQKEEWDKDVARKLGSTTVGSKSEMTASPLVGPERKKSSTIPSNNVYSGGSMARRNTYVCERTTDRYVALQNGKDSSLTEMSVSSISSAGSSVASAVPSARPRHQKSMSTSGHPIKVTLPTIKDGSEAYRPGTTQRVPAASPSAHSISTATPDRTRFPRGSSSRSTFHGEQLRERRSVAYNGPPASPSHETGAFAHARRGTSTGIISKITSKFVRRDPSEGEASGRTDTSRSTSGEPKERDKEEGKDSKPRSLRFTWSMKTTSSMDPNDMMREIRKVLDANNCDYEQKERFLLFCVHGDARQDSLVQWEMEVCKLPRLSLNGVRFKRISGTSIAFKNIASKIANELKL
# UniProt Q8N5S9, sequence (whole entry, looked up): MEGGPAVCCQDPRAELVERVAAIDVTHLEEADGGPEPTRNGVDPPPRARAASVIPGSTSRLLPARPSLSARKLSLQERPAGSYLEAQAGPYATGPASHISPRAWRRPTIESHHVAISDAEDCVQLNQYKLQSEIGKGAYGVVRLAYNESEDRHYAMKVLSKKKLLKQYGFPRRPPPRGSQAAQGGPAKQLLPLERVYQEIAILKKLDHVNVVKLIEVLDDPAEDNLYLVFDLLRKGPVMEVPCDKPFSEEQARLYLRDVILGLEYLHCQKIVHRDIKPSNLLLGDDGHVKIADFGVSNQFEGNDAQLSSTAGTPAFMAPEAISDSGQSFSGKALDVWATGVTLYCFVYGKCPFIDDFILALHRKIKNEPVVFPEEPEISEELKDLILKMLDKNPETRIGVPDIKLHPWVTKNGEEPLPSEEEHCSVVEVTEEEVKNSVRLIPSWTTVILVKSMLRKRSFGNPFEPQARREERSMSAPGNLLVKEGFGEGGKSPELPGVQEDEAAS
# UniProt P45985, sequence (whole entry, looked up): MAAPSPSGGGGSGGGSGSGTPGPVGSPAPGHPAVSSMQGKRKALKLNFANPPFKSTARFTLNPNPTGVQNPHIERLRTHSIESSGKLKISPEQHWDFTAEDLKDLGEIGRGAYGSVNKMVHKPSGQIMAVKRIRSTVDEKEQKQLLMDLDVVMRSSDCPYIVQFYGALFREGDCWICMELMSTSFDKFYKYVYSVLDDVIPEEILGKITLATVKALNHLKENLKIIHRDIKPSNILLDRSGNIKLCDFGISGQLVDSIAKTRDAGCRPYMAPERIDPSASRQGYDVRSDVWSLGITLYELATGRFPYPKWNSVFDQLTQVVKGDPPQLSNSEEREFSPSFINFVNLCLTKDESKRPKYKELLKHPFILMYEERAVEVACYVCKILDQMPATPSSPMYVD

# Study 1 — method: universal PBM; molecule type: double-stranded DNA, one strand shown; matrix: in vitro; tested at: 600 nM; direction: higher = stronger binding
# Target: Sal-like protein 4, full length isoform A (SALL4, Homo sapiens, UniProt Q9UJQ4, residues 1-1053)
# UniProt Q9UJQ4, sequence (whole entry, looked up): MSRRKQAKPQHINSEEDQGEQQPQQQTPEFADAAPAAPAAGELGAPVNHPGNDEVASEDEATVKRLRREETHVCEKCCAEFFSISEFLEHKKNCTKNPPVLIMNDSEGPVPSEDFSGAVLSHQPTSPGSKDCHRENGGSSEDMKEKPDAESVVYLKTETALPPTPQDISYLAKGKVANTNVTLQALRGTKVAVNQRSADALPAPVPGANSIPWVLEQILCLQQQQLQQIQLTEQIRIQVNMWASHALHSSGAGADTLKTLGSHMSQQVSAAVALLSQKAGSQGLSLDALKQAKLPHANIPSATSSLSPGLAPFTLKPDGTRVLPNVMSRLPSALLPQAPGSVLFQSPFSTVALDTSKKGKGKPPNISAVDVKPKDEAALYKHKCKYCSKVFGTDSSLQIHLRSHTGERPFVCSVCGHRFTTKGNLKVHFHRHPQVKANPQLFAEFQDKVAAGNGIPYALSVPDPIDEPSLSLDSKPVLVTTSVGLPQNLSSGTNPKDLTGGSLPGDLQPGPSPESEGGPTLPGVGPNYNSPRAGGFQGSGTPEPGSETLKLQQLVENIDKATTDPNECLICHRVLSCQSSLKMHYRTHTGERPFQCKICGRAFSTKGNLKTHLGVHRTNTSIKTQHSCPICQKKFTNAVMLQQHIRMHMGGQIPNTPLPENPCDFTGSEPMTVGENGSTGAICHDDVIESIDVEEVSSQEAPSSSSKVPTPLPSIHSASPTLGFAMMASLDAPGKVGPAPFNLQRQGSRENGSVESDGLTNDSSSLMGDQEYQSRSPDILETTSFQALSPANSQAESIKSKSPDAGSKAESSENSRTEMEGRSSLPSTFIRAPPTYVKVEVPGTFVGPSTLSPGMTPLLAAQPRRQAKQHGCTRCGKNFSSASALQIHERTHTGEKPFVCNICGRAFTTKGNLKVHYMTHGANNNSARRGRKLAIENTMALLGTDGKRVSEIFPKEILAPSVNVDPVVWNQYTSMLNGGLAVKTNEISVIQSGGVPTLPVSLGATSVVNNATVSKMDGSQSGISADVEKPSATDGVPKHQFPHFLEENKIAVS
# Notes: 8-mer, flanks averaged, mean of replicates
Strand,E-score
CGGTGCTC,-0.241
AGCCAGCT,-0.231
AGTTCCAT,0.0982
CCGCCAGA,-0.173
GAGGTTAA,0.139
TGAAAACA,0.269
CAAACAAC,0.196
ACCGCACT,-0.178

# Study 2 — read-out: enzyme activity; action: inhibitor; tested at: 0.5 µM; reference: control
# Target: Serine/threonine-protein kinase MRCK alpha (CDC42BPA, Homo sapiens, UniProt Q5VT25)
# UniProt Q5VT25, sequence (whole entry, looked up): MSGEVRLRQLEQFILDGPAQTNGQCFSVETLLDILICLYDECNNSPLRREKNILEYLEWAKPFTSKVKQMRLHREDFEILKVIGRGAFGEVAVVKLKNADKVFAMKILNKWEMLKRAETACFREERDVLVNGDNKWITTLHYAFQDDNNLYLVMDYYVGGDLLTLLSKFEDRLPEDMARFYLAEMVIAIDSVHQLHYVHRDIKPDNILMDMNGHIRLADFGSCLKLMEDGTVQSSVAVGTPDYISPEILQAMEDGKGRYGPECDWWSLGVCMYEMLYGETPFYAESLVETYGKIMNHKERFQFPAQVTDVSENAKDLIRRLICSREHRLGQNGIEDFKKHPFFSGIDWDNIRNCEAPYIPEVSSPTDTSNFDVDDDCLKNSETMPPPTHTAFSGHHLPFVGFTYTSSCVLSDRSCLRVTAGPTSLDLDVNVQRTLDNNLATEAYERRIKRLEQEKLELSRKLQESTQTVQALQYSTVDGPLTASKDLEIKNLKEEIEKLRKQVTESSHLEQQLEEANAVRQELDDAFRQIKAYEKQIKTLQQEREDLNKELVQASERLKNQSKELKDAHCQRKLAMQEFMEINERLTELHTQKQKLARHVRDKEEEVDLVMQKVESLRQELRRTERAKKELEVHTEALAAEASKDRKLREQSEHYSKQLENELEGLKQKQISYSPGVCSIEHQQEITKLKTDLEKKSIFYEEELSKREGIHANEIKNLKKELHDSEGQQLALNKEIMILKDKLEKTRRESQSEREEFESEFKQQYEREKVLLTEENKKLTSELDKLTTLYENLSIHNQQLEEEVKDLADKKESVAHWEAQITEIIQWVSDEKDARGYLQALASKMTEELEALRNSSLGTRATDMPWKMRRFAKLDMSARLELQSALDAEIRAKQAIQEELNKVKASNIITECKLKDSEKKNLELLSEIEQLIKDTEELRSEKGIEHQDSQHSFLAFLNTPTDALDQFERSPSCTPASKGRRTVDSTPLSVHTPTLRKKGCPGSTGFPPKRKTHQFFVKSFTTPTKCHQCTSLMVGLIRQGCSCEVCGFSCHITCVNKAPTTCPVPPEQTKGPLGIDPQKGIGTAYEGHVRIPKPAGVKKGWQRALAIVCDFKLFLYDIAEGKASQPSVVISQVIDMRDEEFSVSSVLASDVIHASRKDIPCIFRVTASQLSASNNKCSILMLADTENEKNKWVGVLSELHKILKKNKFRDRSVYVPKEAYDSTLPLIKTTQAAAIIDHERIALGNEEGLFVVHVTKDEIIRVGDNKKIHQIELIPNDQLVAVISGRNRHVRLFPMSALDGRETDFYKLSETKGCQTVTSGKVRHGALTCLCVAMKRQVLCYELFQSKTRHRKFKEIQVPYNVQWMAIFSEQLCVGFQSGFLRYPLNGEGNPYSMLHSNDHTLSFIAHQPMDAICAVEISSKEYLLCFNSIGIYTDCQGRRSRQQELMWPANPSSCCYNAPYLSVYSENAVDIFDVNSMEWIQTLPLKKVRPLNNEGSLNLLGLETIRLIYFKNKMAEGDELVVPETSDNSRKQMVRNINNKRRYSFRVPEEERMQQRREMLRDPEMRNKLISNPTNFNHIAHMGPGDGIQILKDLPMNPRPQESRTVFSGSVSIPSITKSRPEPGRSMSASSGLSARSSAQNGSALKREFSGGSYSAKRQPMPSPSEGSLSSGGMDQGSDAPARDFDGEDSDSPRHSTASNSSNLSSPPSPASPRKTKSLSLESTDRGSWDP
SMILES,remaining activity [%]
COc1cc2ncnc(Nc3ccc(F)c(Cl)c3)c2cc1OCCCN1CCOCC1,87.8
COc1cc2ncnc(Nc3ccc(Oc4ccccc4)cc3)c2cc1OC,95.4
CN(C)c1ccc(C=C2C(=O)Nc3ccccc32)cc1,101
O=C(O)c1ccc2c3c1cccc3c(=O)n1c3ccccc3nc21,96.1
Nc1ccc2ncnc(NCCc3ccc(Oc4ccccc4)cc3)c2c1,102
COc1cc2nccc(Oc3ccc(NC(=S)NC(=O)c4ccccc4C)cc3)c2cc1OC,93.9
CC(C)[C@H](CO)Nc1nc(Nc2cc(N)cc(Cl)c2)c2ncn(C(C)C)c2n1,99.4
O=C(Nc1cccc(Nc2cc(Nc3cccc(C(F)(F)F)c3)ncn2)c1)C1CC1,77.7
O=C(CCCc1ccc(-c2ccccc2F)cc1)Nc1ccc(O)cc1,103
Cn1sc(=O)n(Cc2ccccc2)c1=O,94
Cc1ccc(Nc2nccc(N(C)c3ccc4c(C)n(C)nc4c3)n2)cc1S(N)(=O)=O,85.4
Nc1[nH]nc2nc3ccccc3nc12,95.4
C#Cc1cccc(Nc2ncnc3cc(OCCOC)c(OCCOC)cc23)c1,88.5
O=C1NC(=O)C(c2cn(CCCn3ccnc3)c3ccccc23)=C1Nc1ccccc1,95.2
Cc1nc(-c2ccccc2)c(-c2ccncc2)o1,91.9
N#CC(C#N)=C(N)/C(C#N)=C/c1ccc(O)cc1,96.2

# Study 3 — read-out: cell-free assay; method: competition with immobilised ligand; tested at: 1 µM
# Compound: CO[C@@H](C)c1c(Nc2ccc([C@H](N(C)C(=O)C3CCS(=O)(=O)CC3)C(F)(F)F)cc2)cnc2cc(Cl)nn12
target,remaining binding [%]
"CAMKK1 (Homo sapiens, UniProt Q8N5S9)",80
"EPHA1 (Homo sapiens, UniProt P21709)",100
"EGFR (Homo sapiens, UniProt P00533, del752-759)",100
"NEK1 (Homo sapiens, UniProt Q96PY6)",94
"FGFR3 (Homo sapiens, UniProt P22607)",88
"MARK1 (Homo sapiens, UniProt Q9P0L2)",69
"MAP2K4 (Homo sapiens, UniProt P45985)",100
"MELK (Homo sapiens, UniProt Q14680)",59

# Study 4 — method: protein-binding microarray; molecule type: double-stranded DNA, one strand shown; matrix: in vitro; tested at: 2200 nM top; notes: 60-bp whole probe; added: salmon DNA 0.4 mg/ml; reference: random background probes; direction: higher = stronger binding; constant ends, left off below: GCCTAGCAC … GTCTTGATTCGCTTGACGCTGCTG
# Target: Interferon regulatory factor 7, full length, phosphomimetic (IRF7, Homo sapiens, UniProt Q92985, residues 1-503, S471D/S472D/S475D/S476D/S477D/S483D/S484D/S487D)
# UniProt Q92985, sequence (whole entry, unmodified, looked up): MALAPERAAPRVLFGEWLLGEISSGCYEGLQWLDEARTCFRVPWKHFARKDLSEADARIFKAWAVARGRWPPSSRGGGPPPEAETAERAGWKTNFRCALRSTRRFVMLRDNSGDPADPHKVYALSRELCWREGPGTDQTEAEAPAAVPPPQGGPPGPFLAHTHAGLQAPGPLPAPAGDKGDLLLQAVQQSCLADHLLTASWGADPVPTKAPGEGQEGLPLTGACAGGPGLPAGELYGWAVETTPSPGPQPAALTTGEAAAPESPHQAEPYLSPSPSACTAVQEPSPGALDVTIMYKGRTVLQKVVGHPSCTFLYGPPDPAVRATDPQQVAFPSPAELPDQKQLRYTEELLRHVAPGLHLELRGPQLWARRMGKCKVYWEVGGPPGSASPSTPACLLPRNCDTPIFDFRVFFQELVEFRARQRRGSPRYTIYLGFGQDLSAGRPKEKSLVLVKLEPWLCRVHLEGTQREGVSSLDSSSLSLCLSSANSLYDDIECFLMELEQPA
Strand,fitted relative affinity
ATAGATATCAGTCTCGATTAGTGCTAG,0.41 z-score
GACGGTATCCGGTATCGGGACGTGCTA,-0.152 z-score
GACGGTTCCCTTTTCCTGATGTGCTAG,2.65 z-score
GACGATTTCAGTATCGGGACGTGCTAG,0.858 z-score
GACGGACTGGACACGGGGGACGTGCTA,-0.207 z-score
GACGGTATCGGTATCAGGACGTGCTAG,0.588 z-score
TTAGGACTGGGCCTCGGTTAGTGCTAG,-0.641 z-score
GACGATATCAGTTACGAGACGTGCTAG,0.561 z-score

# Some of these lines once more (study 2):
SMILES,remaining activity [%]
COc1cc2nccc(Oc3ccc(NC(=S)NC(=O)c4ccccc4C)cc3)c2cc1OC,93.9
CN(C)c1ccc(C=C2C(=O)Nc3ccccc32)cc1,101
Cc1ccc(Nc2nccc(N(C)c3ccc4c(C)n(C)nc4c3)n2)cc1S(N)(=O)=O,85.4
Cc1nc(-c2ccccc2)c(-c2ccncc2)o1,91.9
O=C(CCCc1ccc(-c2ccccc2F)cc1)Nc1ccc(O)cc1,103
